Results collected from several papers.
Protocols differ between the studies behind these lines. ± marks the error that the study gave.
U2AF2: U2AF2 148-342 (Homo sapiens, UniProt P26368)
Sequence of UniProt P26368 (whole entry, looked up): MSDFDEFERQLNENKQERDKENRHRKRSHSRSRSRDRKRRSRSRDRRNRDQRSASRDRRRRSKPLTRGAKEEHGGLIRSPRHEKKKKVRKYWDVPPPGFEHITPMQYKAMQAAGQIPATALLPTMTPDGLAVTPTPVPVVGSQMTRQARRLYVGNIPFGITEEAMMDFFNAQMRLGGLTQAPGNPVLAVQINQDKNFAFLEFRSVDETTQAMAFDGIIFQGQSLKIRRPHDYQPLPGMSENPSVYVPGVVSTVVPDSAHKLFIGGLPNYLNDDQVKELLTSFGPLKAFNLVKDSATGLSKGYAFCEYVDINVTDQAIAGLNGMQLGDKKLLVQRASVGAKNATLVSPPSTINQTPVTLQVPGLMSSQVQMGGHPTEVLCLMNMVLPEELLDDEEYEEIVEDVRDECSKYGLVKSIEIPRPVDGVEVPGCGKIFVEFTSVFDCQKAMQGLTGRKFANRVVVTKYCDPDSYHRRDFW

`Neuropeptide Y` has a retention time of 5.07 min (RP-HPLC; HALO Peptide ES-C18 column; 25 µM, formic acid/acetonitrile, 10 min gradient).
The dose-proportionality slope of `insulin icodec` is reported as 0.83 (Chinese type 2 diabetes patients; subcutaneous, log AUC(tau) vs log dose).
With `durvalumab` the Cmax was 482 µg/mL (human, plasma; intravenous, 1500 mg, cycle 4 day 1, together with: adavosertib 125 mg twice daily).
For `insulin`, the concentration was 0.00954 µg/mL (LC-MS/MS; human serum pool; 24 h, 4 °C, high pool, before preparation, together with: C-peptide 8.70 ng/mL).
`ACEEQNPWARYLEWLFPTETLLLEL` — result for “mean fluorescence intensity”: 179 ± 16.1 a.u. (ex vivo fluorescence imaging; peptide, BALB/c mice, 4T1 tumour-bearing, muscle; intravenous, 5 nmol, 48 h post-injection; higher = more uptake).
`human RGPD2`: “log2 fold change” 0.39 (CYB5R4 knockout human cells; PP4 interaction, 3xFLAG-PP4C IP-MS; concentration not given; reference: CYB5R4 KO over parental).
`insulin icodec` has an AUC(0-inf) ratio of 1.15 (human moderate hepatic impairment (Child-Pugh B), serum; subcutaneous, 1.5 U/kg single dose; reference: moderate impairment over normal function).
`ACEQNPIYWARYADWLFTTPLLLLDLALLVDADEGT`: “mean fluorescence intensity” 3860 ± 1060 a.u. (ex vivo fluorescence imaging; peptide, BALB/c mice, 4T1 tumour-bearing, 4T1 tumour; intravenous, 5 nmol, 2 h post-injection; higher = more uptake).
With `adrenomedullin` the retention time was 3.75 min (RP-HPLC; HALO Peptide ES-C18 column; 25 µM, formic acid/acetonitrile, 10 min gradient).
The Tmax, median of `insulin degludec` is reported as 14 h (human; subcutaneous, 0.4 IU/kg, 3 FC level, single dose, reference formulation).
The Kd of `GGGGGCAAA (ssRNA)` is reported as 1.58 µM (U2AF2; sequencing of bound RNA; RNA; motif only).
`ACDDQNPWRAYLDLLFPTDTLLLDLLW`: “mean fluorescence intensity” 255 ± 37.2 a.u. (ex vivo fluorescence imaging; peptide, BALB/c mice, 4T1 tumour-bearing, liver; intravenous, 5 nmol, 48 h post-injection; higher = more uptake).
For `rituximab`, the serum concentration was 365 µg/mL (relapsed iNHL patients; dose not given, after fourth infusion).
`CAUUCAUUC (ssRNA)` gave a Kd of 0.74 µM (U2AF2; sequencing of bound RNA; RNA; motif only).
Under “number of TEAEs”, `pegcetacoplan` is recorded as 1 (measured: ear and labyrinth disorders; patients with PNH; dose not given, phase Ib trial).

For quick reference, copied from above:
`CAUUCAUUC (ssRNA)` gave a Kd of 0.74 µM (U2AF2; sequencing of bound RNA; RNA; motif only).
`insulin icodec` has an AUC(0-inf) ratio of 1.15 (human moderate hepatic impairment (Child-Pugh B), serum; subcutaneous, 1.5 U/kg single dose; reference: moderate impairment over normal function).
